Assay results pooled from the literature.
Every numbered part comes from another study and shows a few of its results, in no order. Substitutions count along the parent as printed.

Set 1
Target: POU, POU domain (Salpingoeca helianthica)
Method: Spec-seq
Molecule type: double-stranded DNA, one strand shown
Sample: in vitro
Concentration: not given
Setting: whole probe, mean of replicates
Relative to: not given
Reading: lower = stronger binding
Shared flanks, not repeated: GAGTCGTCTCGTCAGCAC … CCGTAGAGCACTCAGGTC
Residues (chain): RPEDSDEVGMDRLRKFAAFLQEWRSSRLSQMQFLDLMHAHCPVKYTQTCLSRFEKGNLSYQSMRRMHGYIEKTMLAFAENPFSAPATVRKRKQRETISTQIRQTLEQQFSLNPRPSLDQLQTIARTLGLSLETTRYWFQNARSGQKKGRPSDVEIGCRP
Strand | relative binding energy
ATGCCTCG | 0.417 ln ratio
CGGGTAAT | 0.837 ln ratio
ATGCGATC | 1.03 ln ratio
GTACTAAT | 0.395 ln ratio
ATGTGTAT | 1.09 ln ratio
ATGCCAGG | 1.4 ln ratio
GAACTAAT | 0.532 ln ratio
ATCCAAAT | 1.32 ln ratio

Set 2
Target: CCND2, cyclin fold, Cln2 fusion (human)
Method: yeast growth competition, sequencing
Sample: yeast
Setting: weak parent motif
Relative to: not given
Reading: higher = stronger binding
Parent: WEE1 docking peptide (human); CTLRQKLIFSPCS; partner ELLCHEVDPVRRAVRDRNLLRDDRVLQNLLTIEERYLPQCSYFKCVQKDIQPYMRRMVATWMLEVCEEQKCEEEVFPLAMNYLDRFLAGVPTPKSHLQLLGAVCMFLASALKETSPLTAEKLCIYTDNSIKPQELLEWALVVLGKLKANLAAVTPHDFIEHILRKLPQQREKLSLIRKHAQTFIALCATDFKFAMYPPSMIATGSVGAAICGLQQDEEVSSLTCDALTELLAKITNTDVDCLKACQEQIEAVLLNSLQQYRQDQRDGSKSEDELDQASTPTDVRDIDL
Change | normalised enrichment score
CTLAQKLIFSPCS [R4A] | -0.224
CALRQKLIFSPCS [T2A] | -0.193
CTLRQALIFSPCS [K6A] | -0.0744
CTLRQKLIFAPCS [S10A] | -0.0808
ATLRQKLIFSPCS [C1A] | -0.198
CTLRQKLIFSACS [P11A] | 0.042

Set 3
Target: Ras GTPase-activating protein-binding protein 1, full length (G3BP1, Homo sapiens, UniProt Q13283)
Sequence of UniProt Q13283 (whole entry, looked up): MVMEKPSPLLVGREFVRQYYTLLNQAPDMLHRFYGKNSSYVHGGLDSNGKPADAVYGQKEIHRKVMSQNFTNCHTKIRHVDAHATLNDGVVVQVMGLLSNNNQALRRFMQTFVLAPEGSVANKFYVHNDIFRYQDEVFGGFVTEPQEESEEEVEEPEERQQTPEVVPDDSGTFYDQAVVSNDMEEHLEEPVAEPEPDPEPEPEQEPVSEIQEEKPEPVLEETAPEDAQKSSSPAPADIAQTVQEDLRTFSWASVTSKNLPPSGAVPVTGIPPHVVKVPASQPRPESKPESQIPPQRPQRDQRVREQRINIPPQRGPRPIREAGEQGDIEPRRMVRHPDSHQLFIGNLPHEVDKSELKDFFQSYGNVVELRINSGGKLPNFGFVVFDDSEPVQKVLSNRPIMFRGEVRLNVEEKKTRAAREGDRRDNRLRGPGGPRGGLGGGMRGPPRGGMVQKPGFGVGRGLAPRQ
Method: RNA Bind-n-Seq
Molecule type: RNA
Sample: in vitro
Concentration: 200 nM
Setting: whole 134-nt RNA, ends assumed
Together with: 150 mM LiCl
Relative to: input library
Reading: higher = stronger binding
All molecules: 7-deaza-guanosine replaces G
Shared flanks, not repeated: GGGAGUUCUACAGUCCGACGAUC … UGGAAUUCUCGGGUGUCAAGG
Strand | log2 enrichment
UGGCCCUGGUGGCAUGCGGGGAGGAAGAGGUGGCCUCAUGGAUCGUGGUGGUCCCGGUGGAAUGUUCAGCGGUGGCCGUGGUGGAGACAG | -0.205
CAAGUCCUGUGCUACACAUCGUAUGUACCGAAUCGGUUUGGUUUUUGGAAAAAGGAAAGUAUUAUGUUACGCCGUUCGGAUCUGCACUUC | -0.446
CCUCAAGUCCUGUGCUACACAUCGUAUGUACCGAAUCGGGGAGGGAGGGAGGAAAGUAUUAUGUUACGCCGUUCGGAUCUGCACUUCCAG | -0.106
AGUCCUGUGCUACACAUCGUAUGUACCGAAUCGGGGUUUUGGGUUUUGGUUUUGGGGAAAGUAUUAUGUUACGCCGUUCGGAUCUGCACU | -0.836
UAGGAAAACCGUCUUCAGAUACAGUCCCUAAGCCCAAGAGAGCCCCAAAACAGAAGAAAGUAGUAGAGGCUGUAAACUCUGACUCGGAUU | 0.967
UAACUUUAGAGGAGGAUCUGAUGGAUAUGGCAGUGGACGUGGAUUAGGGGAUGGCUAUAAUGGGUAUGGAGGAGGACCUGGAGGUGGCAA | -0.0728
CACAGACAACACGCACCCAGACAGACACAGAGGGAAGGGGUUGGGAUGGGGACAGGGUGCACAGCAGGGCGGGGUAGGACCCCAGCCCCU | 0.2
UAACUUUAGAGGAGGAUCUGAUGGAUAUUGCAGUGGACGUGGAUUUGGGGAUGGCUAUAAUGGGUAUGGAGGAGGACCUGGAGGUGGCAA | 0.109
UCCUGUGCUACACAUCGUAUGUACCGAAUCGGGGUUUUUUGGGUUUUUUGGUUUUUUGGAAAGUAUUAUGUUACGCCGUUCGGAUCUGCA | 0.515
UCCUGUGCUACACAUCGUAUGUACCGAAUCGGGAAAGGGUUUUUUUGGGUUUUUUUGGGAAAGUAUUAUGUUACGCCGUUCGGAUCUGCA | -0.992
AGUCCUGUGCUACACAUCGUAUGUACCGAAUCGGGGAAAAGGGAAAAGGGAAAAGGGAAAGUAUUAUGUUACGCCGUUCGGAUCUGCACU | -0.7

Further values, each from its own experiment
Molecule | target | test | system | setting | how to read | quantity | result
PhoQ, residues 284 288 289 292 302 303 SVTLVV | PhoP, residues 12 14 15 18 19 HEGLL (Escherichia coli, UniProt P23836) | Sort-seq, refers to: YFP reporter | E. coli | PhoQ-PhoP variant library, together with: 10 µM Mg2+ | relative to: high Mg2+ state, higher = stronger signaling | fold induction | 4.52

For quick reference, copied from above (set 1):
Strand | relative binding energy
ATGTGTAT | 1.09 ln ratio
ATGCCAGG | 1.4 ln ratio
GAACTAAT | 0.532 ln ratio
